{"data": "Results gathered from unrelated publications", "note": "Compare with care: the assays were run in different laboratories. Several values in a cell are separate wells, animals, samples, runs or records. ± marks the error that the study gave."}
{"SMILES": "CC[C@H](C)[C@H](NC(=O)[C@H](C)NC(=O)[C@H](CCCCN)NC(=O)[C@H](CC(C)C)NC(=O)[C@H](C)NC(=O)[C@@H](NC(=O)[C@H](Cc1c[nH]cn1)NC(=O)[C@H](CC(C)C)NC(=O)[C@@H](NC(=O)[C@@H](NC(=O)[C@H](CCCCN)NC(=O)[C@H](C)NC(=O)[C@H](C)NC(=O)[C@H](CO)NC(=O)[C@H](CCCCN)NC(=O)[C@H](Cc1ccccc1)NC(=O)[C@@H](NC(=O)[C@H](CCCCN)NC(=O)[C@H](CC(C)C)NC(=O)[C@H](Cc1ccccc1)NC(=O)[C@H](CO)NC(=O)[C@H](CCCCN)NC(=O)[C@H](Cc1c[nH]c2ccccc12)NC(=O)[C@H](CCCCN)NC(C)=O)[C@@H](C)O)[C@@H](C)O)C(C)C)[C@@H](C)O)C(=O)N[C@@H](CO)C(=O)N[C@@H](CO)C(N)=O", "tested on": "Enterococcus faecium", "setting": "40 strains", "measurement": "MIC50", "value": "4 µg/mL"}
{"SMILES": "C[C@]12CC[C@H]3[C@@H](CC=C4CC(O)CC[C@@]43CO)[C@@H]1CCC2O (stereo partly drawn)", "test": "immunoblot, measured: FXR protein", "test system": "rat, GAN diet-induced MASH, liver", "setting": "dose not given", "scale": "reference: GAN diet plus vehicle", "measurement": "fold increase", "value": "~2"}
{"SMILES": "C=CCNCCc1c[nH]c2cccc(O)c12.C=CCNCCc1c[nH]c2cccc(O)c12.O=C(O)/C=C/C(=O)O", "test system": "C57BL/6J mice", "setting": "subcutaneous, 30 mg/kg, 30 min", "measurement": "distance travelled", "value": "1360 ± 337 cm"}
{"SMILES": "CC[C@H](C)[C@@H]1NC(=O)[C@@H]2CCCN2C(=O)[C@H](CC(C)C)NC(=O)[C@H](CC(C)C)NC(=O)CNC(=O)[C@@H](NC(=O)[C@@H](NC(=O)[C@H](CC(=O)O)NC(=O)CNC(=O)[C@@H](NC(=O)[C@H](C)NC(=O)CNC(=O)[C@H](CCCCN)NC(=O)[C@H](CC(C)C)NC(=O)[C@H](CC(C)C)NC(=O)[C@H](CCCCN)NC(=O)CNC(=O)[C@@H](NC(=O)[C@@H](N)CC(C)C)C(C)C)C(C)C)C(C)C)CSSC[C@@H](C(=O)O)NC1=O", "test": "RNA-seq, measured: Marcksl1", "test system": "mouse, traumatic brain injury model, frontal cortex and hippocampus", "setting": "dose not given", "scale": "reference: TBI alone", "measurement": "log2 fold change", "value": -1.4}
{"SMILES": "CCCCCCCCCCCCCCCCCC[N+](C)(C)CCCCCCCCCCCC[N+](C)(C)CCCCCCCCCCCCCCCCCC.[Br-].[Br-]", "tested on": "influenza A virus A/PR/8/34 (H1N1)", "setting": "concentration not given, pre-treatment", "measurement": "HA titre reduction", "value": "1 log units"}
{"SMILES": "CCCCNCCc1c[nH]c2cccc(O)c12.O=C(O)/C=C/C(=O)O", "test system": "C57BL/6J mice", "setting": "subcutaneous, 1 mg/kg, 30 min", "measurement": "distance travelled", "value": "2610 ± 104 cm"}
{"SMILES": "COc1c(CCC[P+](c2ccccc2)(c2ccccc2)c2ccccc2)cc2c(c1OC)OCO2.[I-]", "tested on": "K562", "test": "SRB", "measurement": "GI50", "value": "-6.28 log M"}
{"SMILES": "CCCNCCc1c[nH]c2cccc(O)c12.CCCNCCc1c[nH]c2cccc(O)c12.O=C(O)/C=C/C(=O)O", "test system": "C57BL/6J mice", "setting": "subcutaneous, 3 mg/kg", "measurement": "head twitch count", "value": "32 ± 3.3"}
{"SMILES": "Nc1ncnc2c1ncn2[C@@H]1O[C@@H]2COP(=O)(O)O[C@H]3[C@@H](O)[C@H](n4cnc5c(=O)[nH]cnc54)O[C@@H]3COP(=O)(O)O[C@H]2[C@H]1O", "tested on": "West Nile virus", "test": "RNA sequencing, measured: DDX58/IFIH1 interferon-alpha/beta induction R-HSA-168928", "test system": "HFF-1 cells", "setting": "concentration not given, upregulated pathway", "scale": "reference: WNV-infected untreated cells", "measurement": "fold enrichment", "value": 4.17}
{"SMILES": "CCCCCCCCCCCC[N+](C)(C)CCCCCC[N+](C)(C)CCCCCCCCCCCC.[Br-].[Br-]", "tested on": "influenza A virus A/PR/8/34 (H1N1)", "setting": "concentration not given, pre-treatment", "measurement": "HA titre reduction", "value": "2.5 ± 0.5 log units"}
{"SMILES": "CS(=O)(=O)CCCn1c(Cn2c(=O)n(CC(F)(F)F)c3ccncc32)cc2cc(Cl)ccc21", "tested on": "respiratory syncytial virus", "test": "RT-qPCR", "test system": "hospitalized infants 1-24 months, nasal swab", "setting": "oral, 1-9 mg/kg daily, day 28, all doses combined", "scale": "reference: baseline", "measurement": "LS mean viral load change", "value": "-4.94 log10 copies/mL"}
{"SMILES": "CC(C)(C)NCCc1c[nH]c2cccc(O)c12.CC(C)(C)NCCc1c[nH]c2cccc(O)c12.O=C(O)/C=C/C(=O)O", "test system": "C57BL/6J mice", "setting": "subcutaneous, 0.3 mg/kg, 30 min", "measurement": "distance travelled", "value": "2640 ± 212 cm"}
{"SMILES": "C[C@H]1O[C@@H](O[C@H]2CC[C@@]3(C)[C@@H](CC[C@]4(C)[C@@H]3C=C[C@]35OC[C@@]6(CCC(C)(C)C[C@H]63)[C@@H](O)C[C@]54C)[C@]2(C)CO)[C@H](O)[C@@H](O[C@@H]2O[C@H](CO)[C@@H](O)[C@H](O)[C@H]2O)[C@H]1O", "test": "histology", "test system": "hepatic SIRT1 knockdown mice, liver", "setting": "dose not given, high dose, normal diet", "measurement": "Oil Red O area", "value": "0.0398% and 0.0397% and 0.0415%"}
{"SMILES": "O=C(O)/C=C/C(=O)O.Oc1cccc2[nH]cc(CCNCc3ccccc3)c12", "test system": "C57BL/6J mice", "setting": "subcutaneous, 30 mg/kg", "measurement": "head twitch count", "value": "20.2 ± 2.3"}
{"SMILES": "CN1CCN(S(=O)(=O)c2cc([N+](=O)[O-])ccc2N(CCOS(C)(=O)=O)CCOS(C)(=O)=O)CC1", "test system": "NSG mice, sample BF PDX", "setting": "intraperitoneal, 25 mg/kg weekly x3", "scale": "reference: treated over vehicle", "measurement": "EFS ratio (T/C)", "value": 1}
{"SMILES": "COP(=S)(OC)Oc1ccc([N+](=O)[O-])c(C)c1", "tested on": "nanobody A4", "test": "ic-ELISA", "setting": "concentration not given", "scale": "reference: coumaphos IC50 over compound IC50, molar basis", "measurement": "cross-reactivity", "value": "< 1%"}
{"SMILES": "CCCCCCCCCCCCCCCC[N+](C)(C)CCCCCCCCCC[N+](C)(C)CCCCCCCCCCCCCCCC.[Br-].[Br-]", "tested on": "influenza A virus A/PR/8/34 (H1N1)", "setting": "concentration not given, co-treatment", "measurement": "HA titre reduction", "value": "3 log units"}
{"SMILES": "O=C(O)/C=C/C(=O)O.Oc1cccc2[nH]cc(CCNC3CCCCC3)c12", "test system": "C57BL/6J mice", "setting": "subcutaneous, 0.1 mg/kg, 30 min", "measurement": "distance travelled", "value": "2280 ± 208 cm"}
{"SMILES": "CCCCCCCCCCCC[N+](C)(C)CCCNCCC[N+](C)(C)CCCCCCCCCCCC.[Br-].[Br-]", "tested on": "influenza A virus A/PR/8/34 (H1N1)", "setting": "concentration not given, post-treatment", "measurement": "HA titre reduction", "value": "2 ± 1 log units"}
{"SMILES": "O=C1c2c(O)c(=O)ccn2N([C@@H]2c3ccccc3SCc3c2ccc(F)c3F)[C@@H]2COCCN12", "tested on": "influenza A virus H1N1", "test system": "A/WSN/33, BALB/c mice, lung", "setting": "subcutaneous, 1 mg/kg every 6 h, 24 h", "measurement": "lung virus titre", "value": "3 log10 TCID50/mL and 2.5 log10 TCID50/mL"}
{"SMILES": "CCNCCc1c[nH]c2cccc(O)c12.CCNCCc1c[nH]c2cccc(O)c12.O=C(O)CCC(=O)O", "test system": "C57BL/6J mice", "setting": "subcutaneous, 0.03 mg/kg, 30 min session", "measurement": "distance travelled", "value": "2240 ± 351 cm"}
